Results pooled from the literature.
Several values in a cell are separate wells, animals, samples, runs or records.

| SMILES | tested on | test | test system | conditions | how to read | endpoint | value |
| --- | --- | --- | --- | --- | --- | --- | --- |
| Cc1noc2c1-c1ccccc1C(c1ccc(Cl)cc1)=N[C@H]2CC(N)=O | HD-MB03 | cell growth | – | 168 h, DMSO | – | IC50 | 0.806 µM |
| Cn1c(NCCN(CCO)CCCc2ccc([N+](=O)[O-])cc2)cc(=O)n(C)c1=O | Nedd8-cullin1 interaction | neddylation, AlphaScreen | – | 100 µM | – | inhibition | 19.6% |
| CN1CCN(S(=O)(=O)c2ccc(-c3ccc4nncc(Nc5ncccn5)c4c3)cc2)CC1 | Schistosoma mansoni | – | adult worms | 10 µM, 5 h | direction not given | phenotypic severity score | 0 |
| NC(=O)c1cnc2[nH]ccc2c1N[C@@H]1[C@@H]2CC3C[C@H]1C[C@@](O)(C3)C2 | – | CD8+ memory T cells, flow cytometry | Japanese humans, peripheral blood | 200 mg single dose | baseline: baseline | percent change | -0.25% |
| COc1ccc(Nc2cnnc3ccc(-c4ccc(N5CCN(C)CC5)cc4)cc23)cc1Cl | Schistosoma mansoni | – | adult worms | 10 µM, 48 h | direction not given | phenotypic severity score | 0 |
| CC1=C(Cn2cc(CN3CCOCC3)nn2)C(=O)c2ccccc2C1=O | Schistosoma mansoni | – | adult worms | 25 µM, 48 h | – | killing | 46.5% |
| N#Cc1ccn2c(-c3ccncc3)c(-c3ccc(F)cc3)nc2c1 | – | kinase binding, competitor, MIB/MS competition, refers to: RIM11 | Candida albicans cell lysate | 100 nM | baseline: DMSO | log2 fold change | -0.28 |
| Cc1ccc(Nc2cnnc3ccc(-c4ccc(N5CCN(C)CC5)cc4)cc23)cn1 | Schistosoma mansoni | – | adult worms | 10 µM, 48 h | direction not given | phenotypic severity score | 2 |
| O=S(=O)(c1cccc2cnccc12)N1CCCNCC1 | Nedd8-cullin1 interaction | neddylation, AlphaScreen | – | 100 µM | – | inhibition | 6.6% |
| CCn1cc(-c2cc(Cn3ccoc3=N)cc3c2CCN([C@@H](C)c2cc(OC)ccn2)C3=O)c(C(F)(F)F)n1 | SUIT-2 | cell growth, inhibitor | – | 120 h | – | EC50 | 12.6 µM |
| CC1=C(Cc2cn(CCN3CCC(F)(F)CC3)nn2)C(=O)c2ccccc2C1=O | Schistosoma mansoni | – | adult worms | 25 µM, 24 h | – | killing | 41.3% |
| COc1ccc(Nc2cnnc3cc(-c4cnc(N5CCCN(C)CC5)nc4)ccc23)cc1 | Schistosoma mansoni | – | adult worms | 10 µM, 24 h | direction not given | phenotypic severity score | 1 |
| CC1=C(Cc2cn(CCN3CCN(C(=O)OC(C)(C)C)CC3)nn2)C(=O)c2ccccc2C1=O | Schistosoma mansoni | – | adult worms | 25 µM, 48 h | – | killing | 46.9% |
| Cn1cc(-c2ccc(-c3cncc(Cl)c3N3CCC4(CCNC4=O)CC3)cc2)cn1 | COLO 205 | microarray, refers to: NEAT1 | – | concentration not given, 2 h | baseline: untreated cells | fold change in expression | 3.8 |
| CC(C)NCC(O)COc1ccc(COCCOC(C)C)cc1 (stereo not shown) | Nedd8-cullin1 interaction | neddylation, AlphaScreen | – | 100 µM | – | inhibition | 2.3% |
| CC1=C(Cn2ccnn2)C(=O)c2ccccc2C1=O | Schistosoma mansoni | – | adult worms | 25 µM, 72 h | – | killing | 54.9% |
| COC(=O)C1=C(C)NC(C)=C(C(=O)OC)C1c1ccccc1[N+](=O)[O-] | Nedd8-cullin1 interaction | neddylation, AlphaScreen | – | 100 µM | – | inhibition | 36.7% |
| [Ca+2] | human TRPA1 W1103A | ion current, two-electrode voltage clamp | Xenopus oocytes | -80 mV, added: AITC | – | desensitization time constant | 159 s and 192 s and 205 s and 260 s and 223 s and 196 s |
| O=C(/C=C/C=C/C=C/C1CCCCC1)NC1=C[C@@](O)(/C=C/C=C/C=C/C(=O)NC2=C(O)CCC2=O)[C@@H]2O[C@@H]2C1=O | NCI-H2122 | cell growth, CellTiter-Glo | – | 78 h | – | GI50 | 29.1 µM |
| CCCC(=O)OCOC(=O)C1=C(C)NC(C)=C(C(=O)OC)C1c1cccc(Cl)c1Cl (stereo not shown) | Nedd8-cullin1 interaction | neddylation, AlphaScreen | – | 100 µM | – | inhibition | 28.9% |

| SMILES | tested on | test | test system | conditions | how to read | endpoint | value |
| --- | --- | --- | --- | --- | --- | --- | --- |
| CC1=C(Cc2cn(CCN3CCNCC3)nn2)C(=O)c2ccccc2C1=O | Schistosoma mansoni | – | adult worms | 10 µM, 72 h | – | killing | 50% |
| Cc1c(CN2CCN(C(=O)[C@H](C)O)CC2)sc2c(N3CCOCC3)nc(-c3cnc(N)nc3)nc12 | phospho-Akt | Akt phosphorylation, inhibitor | human patients with epithelioid sarcoma, plasma | PK-PD study | – | IC50 | 0.0124 µg/mL |
| N=C(N)Nc1ccc(C(=O)Oc2ccc3cc(C(=N)N)ccc3c2)cc1 | Nedd8-cullin1 interaction | neddylation, AlphaScreen | – | 100 µM | – | inhibition | -4.3% |
| CN1CCN(c2ccc(-c3ccc4nncc(Nc5cnccn5)c4c3)cc2)CC1 | Schistosoma mansoni | – | adult worms | 10 µM, 24 h | direction not given | phenotypic severity score | 0 |
| C[C@H]1c2cccc(O)c2C(=O)C2=C(O)[C@]3(O)C(=O)C(C(N)=O)=C(O)[C@@H](N(C)C)[C@@H]3[C@@H](O)[C@@H]21 | Brugia malayi | – | SCID mouse | dose not given, 6 weeks post-treatment, dosing x42d | – | minimum adult worm burden | 0 worms per mouse |
| CN1CCN(S(=O)(=O)c2ccc(-c3ccc4c(Nc5ncccn5)cnnc4c3)cc2)CC1 | Schistosoma mansoni | – | adult worms | 10 µM, 5 h | direction not given | phenotypic severity score | 0 |
| O=C(O)CNC(=O)Cc1ccccc1 | – | – | ventricular cardiomyocytes, C57BL/6 mouse | dose not given, 0.044 s | – | sarcomere length | 1.72 µm |
| COc1ccc(Nc2cnnc3cc(-c4ccc(S(=O)(=O)N5CCN(C)CC5)cc4)ccc23)cc1Cl | Schistosoma mansoni | – | adult worms | 10 µM, 48 h | direction not given | phenotypic severity score | 4 |
| COc1cc(/C=C/C(=O)O)ccc1O | Nedd8-cullin1 interaction | neddylation, AlphaScreen | – | 100 µM | – | inhibition | 7.5% |
| COc1cnc2cccc(N3CCc4c(cc(Cn5ccnc5C)cc4-c4cn(C)nc4C(F)(F)F)C3=O)c2c1 | HT115 | cell growth, inhibitor | – | 120 h | – | EC50 | 0.335 µM |
| COc1cc2nc(N3CCN(C(=O)c4ccco4)CC3)nc(N)c2cc1OC | Nedd8-cullin1 interaction | neddylation, AlphaScreen | – | 100 µM | – | inhibition | 34.2% |
| COc1ccc(Nc2cnnc3ccc(-c4ccc(S(=O)(=O)N5CCN(C)CC5)cc4)cc23)cc1 | Schistosoma mansoni | – | adult worms | 10 µM, 1 h | direction not given | phenotypic severity score | 0 |
| CC1=C(Cc2cn(CC#N)nn2)C(=O)c2ccccc2C1=O | Schistosoma mansoni | – | adult worms | 25 µM, 48 h | – | killing | 44.8% |
| C[C@H](Oc1ccc(Br)cc1-c1ccon1)C(=O)O | – | handgrip dynamometry | healthy human males | 400 mg once daily, multiple doses | baseline: placebo | peak grip force | 1.5 kg |
| CC1=C(Cn2cncn2)C(=O)c2ccccc2C1=O | Schistosoma mansoni | – | adult worms | 10 µM, 24 h | – | killing | 40.8% |
| CCn1cc(-c2cc(Cn3ccnc3)cc3c2CCN([C@H](c2cc(OC)ccn2)C2CC2)C3=O)c(C(F)(F)F)n1 | SK-MEL-24 | cell growth, inhibitor | – | 120 h | – | EC50 | > 30 µM |
| CC(C)c1c2cc(-c3ccnc(NC4CCC(NC5CCOCC5)CC4)n3)ccc2nn1C (stereo not shown) | HD-MB03 | cell growth | – | single agent | – | IC50 | 0.166 µM |
| OC(CCN1CCCCC1)(c1ccccc1)C1CC2C=CC1C2 (stereo not shown) | – | resting-state EEG | healthy elderly humans | oral, 2 mg, eyes open, LS mean | baseline: baseline | change, Alpha EEG power, in O2-Pz | 13.8% |
| CC(C)NCC(O)c1ccc(O)c(O)c1 (stereo not shown) | – | – | ventricular cardiomyocytes, C57BL/6 mouse | dose not given, 0.552 s | – | sarcomere length | 1.51 µm |
| CC1=C(Cn2cc(CN3CCN(C(=O)OC(C)(C)C)CC3)nn2)C(=O)c2ccccc2C1=O | Schistosoma mansoni | – | adult worms | 10 µM, 72 h | – | killing | 46.2% |

For quick reference, copied from above:
| SMILES | tested on | test | test system | conditions | how to read | endpoint | value |
| --- | --- | --- | --- | --- | --- | --- | --- |
| N#Cc1ccn2c(-c3ccncc3)c(-c3ccc(F)cc3)nc2c1 | – | kinase binding, competitor, MIB/MS competition, refers to: RIM11 | Candida albicans cell lysate | 100 nM | baseline: DMSO | log2 fold change | -0.28 |
| Cc1ccc(Nc2cnnc3ccc(-c4ccc(N5CCN(C)CC5)cc4)cc23)cn1 | Schistosoma mansoni | – | adult worms | 10 µM, 48 h | direction not given | phenotypic severity score | 2 |
| O=S(=O)(c1cccc2cnccc12)N1CCCNCC1 | Nedd8-cullin1 interaction | neddylation, AlphaScreen | – | 100 µM | – | inhibition | 6.6% |
| CCn1cc(-c2cc(Cn3ccoc3=N)cc3c2CCN([C@@H](C)c2cc(OC)ccn2)C3=O)c(C(F)(F)F)n1 | SUIT-2 | cell growth, inhibitor | – | 120 h | – | EC50 | 12.6 µM |
| CC1=C(Cc2cn(CCN3CCC(F)(F)CC3)nn2)C(=O)c2ccccc2C1=O | Schistosoma mansoni | – | adult worms | 25 µM, 24 h | – | killing | 41.3% |
